Assay results pooled from the literature.
Numbered parts are unrelated; each lists some results of a single study.

Study 1
Target: Histone acetyltransferase KAT6A, winged helix 1, GST fusion (KAT6A, Homo sapiens, UniProt Q92794, residues 1-85)
Technique: protein binding microarray
Form: double-stranded DNA, one strand shown
Matrix: in vitro
Tested at: not given
Setting: 8-mer, flanks averaged, mean of 2 arrays, mostly near background
Relative to: not given
Reading: higher = stronger binding
Construct (chain): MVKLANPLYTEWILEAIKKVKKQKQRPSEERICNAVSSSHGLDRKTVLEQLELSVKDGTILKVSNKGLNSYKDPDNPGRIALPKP
Oligonucleotide | E-score
ACATAGTA | -0.0632
AAATCAAC | -0.231
CGGCAACC | 0.369
AACCTGGT | -0.142
GGAGCCTA | -0.111
GCCCGGGC | 0.427
GCCAAGGA | -0.219

Study 2
Target: Protein C-ets-1 (ETS1, Homo sapiens, UniProt P14921, residues 1-441, K379A, full length assumed)
Technique: protein-binding microarray
Form: double-stranded DNA, one strand shown
Matrix: in vitro
Tested at: not given
Setting: k-mer, scored over probes, only values ≥0.25
Reading: higher = stronger binding
Construct (chain): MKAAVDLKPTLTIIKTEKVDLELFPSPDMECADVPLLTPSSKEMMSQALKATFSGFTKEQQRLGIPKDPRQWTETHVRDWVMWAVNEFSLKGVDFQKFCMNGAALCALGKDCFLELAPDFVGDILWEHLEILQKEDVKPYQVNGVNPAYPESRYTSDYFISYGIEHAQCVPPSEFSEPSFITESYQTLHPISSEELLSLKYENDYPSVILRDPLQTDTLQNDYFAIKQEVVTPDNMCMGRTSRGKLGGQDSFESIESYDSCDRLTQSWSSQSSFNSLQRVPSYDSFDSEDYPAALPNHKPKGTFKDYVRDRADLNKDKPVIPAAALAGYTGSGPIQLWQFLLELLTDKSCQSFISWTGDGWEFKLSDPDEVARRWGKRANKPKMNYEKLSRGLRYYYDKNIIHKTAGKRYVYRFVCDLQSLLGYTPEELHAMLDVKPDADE
Oligonucleotide | E-score
ATACGGTC | 0.263
CCTCCCCA | 0.275
CCGGTCCG | 0.356
ATTTCCCA | 0.258

Study 3
Target: RNA binding protein fox-1 homolog 2, RRM domain, GST-SBP tag (RBFOX2, Homo sapiens, UniProt O43251-10, residues 100-194)
Technique: RNA Bind-n-Seq
Form: RNA
Matrix: in vitro
Tested at: 365 nM
Setting: natural RNA segment, single round, ends assumed
Relative to: no-protein control
Reading: higher = stronger binding
Constant ends, left off below: GGGAGUUCUACAGUCCGACGAUC … UGGAAUUCUCGGGUGCCAA
Construct (chain): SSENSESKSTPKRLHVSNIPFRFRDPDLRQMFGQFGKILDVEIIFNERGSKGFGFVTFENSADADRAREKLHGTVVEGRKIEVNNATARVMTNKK
Oligonucleotide | RBNS enrichment (R)
CUUCUGUUUCUCAGGCUCUGGGGAAAGGAAUCUCCCUCUCCUCUCACUUGAUUCCAAGUGUGGUUGAAUUGUCUGGAGCACUGGGACUUUUUUUCUCUUUUCCUUGAUGG | 0.436
CAGCAGCCAGGAGGACCUGACCCAGCAGUUCUUUACUGGCCCCUUUGUAGGGCCUUGCUGCCAGGGGGCAGGGAUGCUUUCCAGCCUGCAGCAACAGAACACUUGACCUU | 0.227
UGAAUCAUGUUCUAGUUGCUUGACCCUGCCACAUGGGUCCAGUGUUCAUCUGAGCAUAACUGUACUAAAUCCUUUUUCCAUAUCAGUAUAAUAAAGGAGUGAUGUGCAAU | 0.38
AUAAGACUUUAACUGCAGUUCCAAAGCUUCUCUAACCCAAAAAUUACAGUACCAAAUGAUUGACUCAGGAUUGUUUUUCCCAUAUUGAUAUGCUGGCAAUAUAGGAUGGU | 0.603
CCAGAGCUCUUUCUGGUCAGAUUCCCCAGGUGUUUGUCCCCAGCCAAGCCUGGUCCGUAUUGUGAAGCUUGGGAUGCUGGAGCCAAUGCUGUCCCAAGAAGGCUUACUUU | 0.544
CCAUUCACAUCCCAGGGCUGUGUCCAGACAGCACAAAACGGCAAGGAGAGCCCAAGCCCCAAUGCCAGAAUUCUUCCAAACUCCCUGACUCUUUGAAGUUUUUACUCACC | 0.675

Single results of other studies
Molecule | target | test | test system | setting | scale | endpoint | result
PhoQ, residues 284 288 289 292 302 303 ALSMDL | PhoP, residues 12 14 15 18 19 HEGLL (Escherichia coli, UniProt P23836) | Sort-seq, item: YFP reporter | E. coli | PhoQ-PhoP variant library, together with: 10 µM Mg2+ | relative to: high Mg2+ state, higher = stronger signaling | fold induction | 6.28

A few entries again (study 3):
Oligonucleotide | RBNS enrichment (R)
UGAAUCAUGUUCUAGUUGCUUGACCCUGCCACAUGGGUCCAGUGUUCAUCUGAGCAUAACUGUACUAAAUCCUUUUUCCAUAUCAGUAUAAUAAAGGAGUGAUGUGCAAU | 0.38
AUAAGACUUUAACUGCAGUUCCAAAGCUUCUCUAACCCAAAAAUUACAGUACCAAAUGAUUGACUCAGGAUUGUUUUUCCCAUAUUGAUAUGCUGGCAAUAUAGGAUGGU | 0.603
CUUCUGUUUCUCAGGCUCUGGGGAAAGGAAUCUCCCUCUCCUCUCACUUGAUUCCAAGUGUGGUUGAAUUGUCUGGAGCACUGGGACUUUUUUUCUCUUUUCCUUGAUGG | 0.436
